Results gathered from unrelated publications.
Compare with care: the assays were run in different laboratories. Several values in a cell are separate wells, animals, samples, runs or records. Numbers after ± are the reported error.
GUK1 part: GMP-bound: GUK1, part: GMP-bound (Homo sapiens, UniProt Q16774)
UniProt Q16774, sequence (whole entry, unmodified, looked up): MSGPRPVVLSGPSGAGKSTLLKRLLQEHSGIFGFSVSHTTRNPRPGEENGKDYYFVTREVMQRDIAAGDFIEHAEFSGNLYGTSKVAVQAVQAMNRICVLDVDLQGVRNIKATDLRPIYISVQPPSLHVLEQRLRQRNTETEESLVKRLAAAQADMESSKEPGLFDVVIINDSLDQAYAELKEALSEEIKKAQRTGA
USP33 ZnF-UBD domain: Ubiquitin carboxyl-terminal hydrolase 33, ZnF-UBD domain (USP33, Homo sapiens, UniProt Q8TEY7)
UniProt Q8TEY7, sequence (whole entry, looked up): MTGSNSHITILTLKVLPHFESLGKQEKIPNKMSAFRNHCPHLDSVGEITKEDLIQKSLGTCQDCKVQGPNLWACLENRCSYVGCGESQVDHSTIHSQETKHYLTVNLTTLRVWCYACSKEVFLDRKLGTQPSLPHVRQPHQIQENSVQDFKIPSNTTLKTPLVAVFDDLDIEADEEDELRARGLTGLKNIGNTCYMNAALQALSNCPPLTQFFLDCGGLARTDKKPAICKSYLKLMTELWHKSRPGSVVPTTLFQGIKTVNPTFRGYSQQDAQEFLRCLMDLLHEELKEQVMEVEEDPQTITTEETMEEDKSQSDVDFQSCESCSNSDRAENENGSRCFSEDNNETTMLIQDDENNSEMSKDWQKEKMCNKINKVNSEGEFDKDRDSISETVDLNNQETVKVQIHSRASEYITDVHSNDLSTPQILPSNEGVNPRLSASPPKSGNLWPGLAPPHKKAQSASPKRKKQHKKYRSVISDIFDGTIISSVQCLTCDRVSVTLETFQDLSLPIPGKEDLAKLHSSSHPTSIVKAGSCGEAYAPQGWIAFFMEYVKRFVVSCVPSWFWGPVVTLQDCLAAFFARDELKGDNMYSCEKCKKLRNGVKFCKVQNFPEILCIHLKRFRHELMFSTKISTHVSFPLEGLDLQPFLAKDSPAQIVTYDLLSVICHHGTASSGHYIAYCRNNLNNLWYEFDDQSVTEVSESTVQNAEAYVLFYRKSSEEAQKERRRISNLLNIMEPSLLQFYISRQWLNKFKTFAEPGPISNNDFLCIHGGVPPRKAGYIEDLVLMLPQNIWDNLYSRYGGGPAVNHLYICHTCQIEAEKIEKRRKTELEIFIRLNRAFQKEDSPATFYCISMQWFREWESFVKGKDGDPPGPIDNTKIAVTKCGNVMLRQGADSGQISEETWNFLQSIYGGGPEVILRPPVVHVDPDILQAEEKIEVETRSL
UniProt P39146, sequence (whole entry, unmodified, looked up): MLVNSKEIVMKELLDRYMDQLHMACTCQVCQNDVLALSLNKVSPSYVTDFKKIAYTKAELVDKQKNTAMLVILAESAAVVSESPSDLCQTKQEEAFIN
UniProt P22748, sequence (whole entry, looked up): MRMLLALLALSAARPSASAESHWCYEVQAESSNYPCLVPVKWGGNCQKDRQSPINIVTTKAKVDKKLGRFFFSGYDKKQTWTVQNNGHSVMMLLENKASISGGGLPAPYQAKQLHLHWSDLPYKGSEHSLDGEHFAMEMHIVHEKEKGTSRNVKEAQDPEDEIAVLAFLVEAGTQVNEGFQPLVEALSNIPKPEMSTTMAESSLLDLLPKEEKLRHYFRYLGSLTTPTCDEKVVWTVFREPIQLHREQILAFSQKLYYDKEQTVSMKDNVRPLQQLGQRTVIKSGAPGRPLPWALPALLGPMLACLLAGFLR
UniProt P17342, sequence (whole entry, looked up): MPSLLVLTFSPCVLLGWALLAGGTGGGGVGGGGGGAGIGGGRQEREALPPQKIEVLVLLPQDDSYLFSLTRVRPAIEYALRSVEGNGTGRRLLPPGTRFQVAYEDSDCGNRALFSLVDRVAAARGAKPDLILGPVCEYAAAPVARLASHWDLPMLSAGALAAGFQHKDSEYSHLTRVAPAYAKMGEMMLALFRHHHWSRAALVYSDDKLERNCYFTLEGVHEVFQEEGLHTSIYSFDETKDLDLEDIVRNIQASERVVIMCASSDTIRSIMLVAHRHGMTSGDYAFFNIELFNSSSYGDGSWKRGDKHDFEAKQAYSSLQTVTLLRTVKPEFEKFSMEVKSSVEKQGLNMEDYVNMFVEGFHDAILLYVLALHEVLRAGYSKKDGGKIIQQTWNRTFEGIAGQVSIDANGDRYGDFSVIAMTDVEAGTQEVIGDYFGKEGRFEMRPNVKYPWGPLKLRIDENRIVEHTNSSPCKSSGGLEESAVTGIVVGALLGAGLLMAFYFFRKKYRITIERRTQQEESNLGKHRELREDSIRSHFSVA
UniProt P48730, sequence (whole entry, looked up): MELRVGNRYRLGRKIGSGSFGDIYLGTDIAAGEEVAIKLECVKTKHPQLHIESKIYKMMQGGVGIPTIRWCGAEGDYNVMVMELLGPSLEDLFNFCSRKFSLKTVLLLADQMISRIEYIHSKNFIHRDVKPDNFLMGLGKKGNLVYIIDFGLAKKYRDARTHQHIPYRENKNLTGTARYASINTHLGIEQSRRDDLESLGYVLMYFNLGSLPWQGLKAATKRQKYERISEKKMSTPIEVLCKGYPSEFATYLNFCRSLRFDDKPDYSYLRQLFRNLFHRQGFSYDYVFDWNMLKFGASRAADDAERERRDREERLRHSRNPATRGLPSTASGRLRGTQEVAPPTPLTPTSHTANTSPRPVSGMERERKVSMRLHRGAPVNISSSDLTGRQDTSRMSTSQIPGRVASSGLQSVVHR
UniProt P31641, sequence (whole entry, unmodified, looked up): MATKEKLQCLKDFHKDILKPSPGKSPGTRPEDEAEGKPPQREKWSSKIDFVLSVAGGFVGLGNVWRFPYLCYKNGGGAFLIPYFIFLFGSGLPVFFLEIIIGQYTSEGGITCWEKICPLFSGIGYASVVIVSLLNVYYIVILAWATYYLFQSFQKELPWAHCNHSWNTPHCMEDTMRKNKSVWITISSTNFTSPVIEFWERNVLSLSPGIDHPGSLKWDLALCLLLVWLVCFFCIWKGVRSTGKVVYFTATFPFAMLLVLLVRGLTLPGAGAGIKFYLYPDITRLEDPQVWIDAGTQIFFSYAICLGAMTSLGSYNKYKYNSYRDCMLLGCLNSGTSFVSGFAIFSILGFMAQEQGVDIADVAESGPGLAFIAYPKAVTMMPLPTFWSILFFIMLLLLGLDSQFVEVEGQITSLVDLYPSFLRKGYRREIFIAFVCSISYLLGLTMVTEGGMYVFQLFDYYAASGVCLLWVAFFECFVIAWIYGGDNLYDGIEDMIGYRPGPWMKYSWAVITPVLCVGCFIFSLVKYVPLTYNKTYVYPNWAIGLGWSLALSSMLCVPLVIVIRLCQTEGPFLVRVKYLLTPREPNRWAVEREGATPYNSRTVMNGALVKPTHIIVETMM
UniProt Q86UL3, sequence (whole entry, looked up): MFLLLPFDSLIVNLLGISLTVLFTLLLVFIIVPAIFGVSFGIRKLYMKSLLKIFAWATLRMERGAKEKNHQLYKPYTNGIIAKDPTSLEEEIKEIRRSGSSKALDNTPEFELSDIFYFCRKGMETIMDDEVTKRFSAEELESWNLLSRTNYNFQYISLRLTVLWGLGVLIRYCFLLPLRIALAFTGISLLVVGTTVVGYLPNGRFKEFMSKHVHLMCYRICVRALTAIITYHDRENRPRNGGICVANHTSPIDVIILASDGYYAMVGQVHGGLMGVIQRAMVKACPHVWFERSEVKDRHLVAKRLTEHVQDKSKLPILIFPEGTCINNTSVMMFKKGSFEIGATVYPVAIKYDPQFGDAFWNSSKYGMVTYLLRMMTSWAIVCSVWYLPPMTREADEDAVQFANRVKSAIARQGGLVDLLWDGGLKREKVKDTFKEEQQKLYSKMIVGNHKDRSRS
UniProt P37231, sequence (whole entry, looked up): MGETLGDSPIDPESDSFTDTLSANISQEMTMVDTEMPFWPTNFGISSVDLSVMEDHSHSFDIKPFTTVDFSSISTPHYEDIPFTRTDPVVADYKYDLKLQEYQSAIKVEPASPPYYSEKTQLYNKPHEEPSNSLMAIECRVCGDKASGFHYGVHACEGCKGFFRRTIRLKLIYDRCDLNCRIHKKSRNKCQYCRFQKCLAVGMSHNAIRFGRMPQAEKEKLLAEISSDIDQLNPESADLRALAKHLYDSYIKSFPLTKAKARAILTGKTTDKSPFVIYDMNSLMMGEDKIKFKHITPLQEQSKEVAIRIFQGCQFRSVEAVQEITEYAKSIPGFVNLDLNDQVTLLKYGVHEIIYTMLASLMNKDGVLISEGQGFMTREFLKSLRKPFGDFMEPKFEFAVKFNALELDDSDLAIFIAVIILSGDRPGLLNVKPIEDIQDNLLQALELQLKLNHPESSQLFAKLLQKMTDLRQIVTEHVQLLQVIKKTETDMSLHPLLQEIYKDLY
UniProt P08185, sequence (whole entry, looked up): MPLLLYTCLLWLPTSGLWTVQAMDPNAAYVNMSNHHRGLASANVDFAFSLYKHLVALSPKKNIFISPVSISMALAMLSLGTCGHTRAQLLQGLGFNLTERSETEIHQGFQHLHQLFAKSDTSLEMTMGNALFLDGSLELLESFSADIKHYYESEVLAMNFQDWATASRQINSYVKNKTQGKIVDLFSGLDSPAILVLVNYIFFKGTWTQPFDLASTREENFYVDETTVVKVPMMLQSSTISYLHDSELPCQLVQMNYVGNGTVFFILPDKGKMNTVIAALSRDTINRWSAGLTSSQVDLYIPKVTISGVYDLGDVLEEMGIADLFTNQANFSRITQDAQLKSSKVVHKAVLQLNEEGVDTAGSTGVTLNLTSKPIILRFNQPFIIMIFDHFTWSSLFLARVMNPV
UniProt B9K712, sequence (whole entry, looked up): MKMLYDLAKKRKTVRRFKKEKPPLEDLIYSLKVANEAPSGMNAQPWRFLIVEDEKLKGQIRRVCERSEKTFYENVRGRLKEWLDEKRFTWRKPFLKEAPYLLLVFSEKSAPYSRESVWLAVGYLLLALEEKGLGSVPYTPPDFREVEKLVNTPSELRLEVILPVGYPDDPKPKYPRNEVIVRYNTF

| Structure (SMILES) | target | test | system | setting | Kd |
| --- | --- | --- | --- | --- | --- |
| Nc1ncnc2c1ncn2[C@@H]1O[C@H](CO[P@](=O)(O)O[P@](=O)(O)O[P@@](=O)(O)S)[C@@H](O)[C@H]1O | GUK1 part: GMP-bound | binding, ITC | – | added: ADP | 11 ± 3 µM |
| c1ccc2[nH]ccc2c1 | IBR region (Acinetobacter baumannii) | microscale thermophoresis | – | – | 12.1 ± 3.17 µM |
| CCCN1CCN(c2ccc(-c3cncc(Cl)c3N3CCC4(CCNC4=O)CC3)cc2)CC1 | Glycerol-3-phosphate acyltransferase 4 (GPAT4, Homo sapiens, UniProt Q86UL3) | SILAC displacement | LS174T-L5 cell lysate | – | 7.03 µM |
| O=C(Nc1ccccc1)c1cc([N+](=O)[O-])ccc1Cl | Peroxisome proliferator-activated receptor gamma, with RXRα (PPARG, Homo sapiens, UniProt P37231) | NCoR peptide recruitment, fluorescence anisotropy | – | LBD with RXRα, added: FITC-NCoR 2263 peptide | 0.264 µM |
| C[C@H]1O[C@H](O[C@H]2[C@H](O)[C@@H](O)[C@@H](O[C@H]3[C@H](O)[C@@H](O)C(O)O[C@@H]3CO)O[C@@H]2CO)[C@H](O)[C@@H](O)[C@@H]1N[C@H]1C=C(CO)[C@@H](O)[C@H](O)[C@H]1O (some centres unmarked) | Uncharacterized protein (Staphylococcus aureus, UniProt Q2G1E9) | isothermal titration calorimetry | – | 25 °C, single-site fit | 1.89 ± 0.27 µM |
| Nc1ncnc2c1ncn2[C@@H]1O[C@H](COP(=O)(O)OP(=O)(O)OP(=O)(O)O)[C@@H](O)[C@H]1O | Creatine kinase U-type, mitochondrial (CKMT1A, Homo sapiens, UniProt P12532, H99A) | microscale thermophoresis | – | pH 8.5, H61A mutant, no substrate | 18 ± 7 µM |
| CC[C@H](C)[C@H](NC(=O)[C@H](CC(C)C)NC(=O)[C@H](Cc1ccc(OP(=O)(O)O)cc1)NC(=O)[C@H](CCC(=O)O)NC(=O)[C@H](CC(=O)O)NC(=O)[C@H](C)NC(=O)[C@H](CC(=O)O)NC(=O)[C@@H](NC(=O)[C@@H](NC(=O)[C@H](CC(=O)O)NC(=O)[C@H](CC(=O)O)NC(=O)[C@H](CCSC)NC(=O)c1ccc2c(c1)C(=O)OC21c2ccc(N(C)C)cc2Oc2cc(N(C)C)ccc21)C(C)C)C(C)C)C(=O)N1CCC[C@H]1C(=O)N[C@@H](CCC(N)=O)C(=O)N[C@@H](CCC(N)=O)C(=O)NCC(=O)N[C@@H](Cc1ccccc1)C(=O)N[C@@H](CC(=O)O)C(=O)O | Tensin-4, SH2 domain (Homo sapiens, UniProt Q8IZW8) | binding | – | – | 0.922 µM |
| O=C(O)CCc1nccs1 | USP33 ZnF-UBD domain | – | – | – | 808 µM |
| N[C@@H](CO)C(=O)O | Uncharacterized protein (Pelagibacter ubique, UniProt Q4FM26) | isothermal titration calorimetry | Candidatus Pelagibacter ubique | – | 0.00591 µM and 0.00679 µM |
| OC[C@H]1O[C@H](O[C@H]2[C@H](O)[C@@H](O)[C@@H](O[C@H]3[C@H](O)[C@@H](O)[C@@H](O[C@H]4[C@H](O)[C@@H](O)C(O)O[C@@H]4CO)O[C@@H]3CO)O[C@@H]2CO)[C@H](O)[C@@H](O)[C@@H]1O (some centres unmarked) | Uncharacterized protein (Staphylococcus aureus, UniProt Q2G1E9) | isothermal titration calorimetry | – | 25 °C, single-site fit | 1.11 ± 0.06 µM |
| N[C@@H](Cc1ccc(O)cc1)C(=O)O | Iodotyrosine deiodinase, split at 68–92 (IYD, Thermotoga neapolitana, UniProt B9K712) | fluorescence quenching | – | 25 °C, oxidized enzyme | > 2000 µM |
| Nc1ccn([C@@H]2O[C@H](COP(=O)(O)OP(=O)(O)OP(=O)(O)O)[C@@H](O)[C@H]2O)c(=O)n1 | BisD Pseudomonas knackmussii | ITC | – | – | ~2 µM |
| Nc1ncnc2c1ncn2[C@@H]1O[C@@H]2COP(=O)(O)O[C@H]3[C@@H](O)[C@H](n4cnc5c(N)ncnc54)O[C@@H]3COP(=O)(O)O[C@H]2[C@H]1O | Competence protein ComFB (comFB, Bacillus subtilis, UniProt P39146) | – | – | – | 83.3 ± 73.1 µM |
| NCC(=O)O | Uncharacterized protein (Pelagibacter ubique, UniProt Q4FM26) | isothermal titration calorimetry | Candidatus Pelagibacter ubique | direct titration | 0.026 ± 0.005 µM |
| Cc1sc2ncn(CC(=O)O)c(=O)c2c1C | USP33 ZnF-UBD domain | – | – | – | > 1000 µM |
| CCn1cnc(C(=O)NC)c1C(=O)NC | Casein kinase I isoform delta (CSNK1D, Homo sapiens, UniProt P48730) | surface plasmon resonance | – | up to 50 µM | no binding |
| O=C(O)Cn1cc2ccccc2n1 | USP33 ZnF-UBD domain | – | – | – | 268 µM |
| Nc1nc2c(ncn2[C@@H]2O[C@@H]3CO[P@](=O)(O)O[C@H]4[C@@H](O)[C@H](n5cnc6c(=O)[nH]c(N)nc65)O[C@@H]4CO[P@](=O)(O)O[C@H]3[C@H]2O)c(=O)[nH]1 | Competence protein ComFB (comFB, Bacillus subtilis, UniProt P39146, D33A) | – | – | – | 12.6 ± 0.3 µM |
| O=c1ccn([C@@H]2O[C@H](COP(=O)(O)OP(=O)(O)OP(=O)(O)O)[C@@H](O)[C@H]2O)c(=O)[nH]1 | BisD (Pseudomonas knackmussii) | binding, isothermal titration calorimetry | – | – | ~21 µM |

| Structure (SMILES) | target | test | system | setting | Kd |
| --- | --- | --- | --- | --- | --- |
| Nc1nc2c(ncn2[C@@H]2O[C@H](COP(=O)(O)O)[C@@H](O)[C@H]2O)c(=O)[nH]1 | GUK1 (Homo sapiens, UniProt Q16774, E72A) | binding, ITC | – | 25 °C, added: GMP | > 500 µM |
| O=C(O)CCC(=O)C(=O)O | NtcA | binding, microscale thermophoresis | – | no DNA | 2000 µM |
| OC[C@H]1OC(O)[C@H](O)[C@@H](O)[C@@H]1O (some centres unmarked) | Transcription factor MafB (MAFB, Homo sapiens, UniProt Q9Y5Q3) | binding, microscale thermophoresis | – | – | > 2000 µM |
| O=C(O)CCC(=O)c1ccc2c(c1)CCC(=O)N2 | USP33 ZnF-UBD domain | – | – | – | > 1000 µM |
| CON(C)C(=O)[C@H](CC(C)C)Nc1ncnc(Nc2ccc(NC(C)=O)cc2)n1 | Atrial natriuretic peptide receptor 3 (Homo sapiens, UniProt P17342) | binding, SPR | – | – | 144 ± 7.7 µM |
| N[C@@H](Cc1ccccc1)C(=O)O | Uncharacterized protein (Pelagibacter ubique, UniProt Q4FM26) | isothermal titration calorimetry | Candidatus Pelagibacter ubique | – | 5.53 µM and 5.54 µM and 4.29 µM and 2.48 µM and 4.01 µM and 3.69 µM |
| C=CC(=O)N1CCN(c2nc(OC[C@@H]3CCCN3C)nc3c(F)c(-c4nc(N)cc(C)c4C(F)(F)F)c(Cl)cc23)[C@@H](C)C1 | GTPase KRas, GDP-bound (KRAS, Homo sapiens, UniProt P01116, G12V) | binding, surface plasmon resonance | – | – | 11.9 ± 0.76 µM |
| O=C(O)CCn1cccn1 | USP33 ZnF-UBD domain | – | – | – | > 1000 µM |
| N[C@@H](CCC(=O)O)C(=O)O | Uncharacterized protein (Pelagibacter ubique, UniProt Q4FM26) | isothermal titration calorimetry | Candidatus Pelagibacter ubique | direct titration | < 0.005 µM |
| NS(=O)(=O)c1ccc(NCC(=O)O)cc1 | USP33 ZnF-UBD domain | – | – | – | > 1000 µM |
| OC[C@H]1O[C@H](O[C@H]2[C@H](O)[C@@H](O)[C@@H](O[C@H]3[C@H](O)[C@@H](O)[C@@H](O[C@H]4[C@H](O)[C@@H](O)[C@@H](O[C@H]5[C@H](O)[C@@H](O)C(O)O[C@@H]5CO)O[C@@H]4CO)O[C@@H]3CO)O[C@@H]2CO)[C@H](O)[C@@H](O)[C@@H]1O (some centres unmarked) | Uncharacterized protein (Staphylococcus aureus, UniProt Q2G1E9) | isothermal titration calorimetry | – | 25 °C, single-site fit | 1.21 ± 0.09 µM |
| NCCCC(=O)O | Sodium- and chloride-dependent taurine transporter (SLC6A6, Homo sapiens, UniProt P31641, E406A) | microscale thermophoresis | – | E406A mutant | 139 ± 43.1 µM |
| NC[C@@H]1O[C@H](O[C@H]2[C@@H](O)[C@H](O[C@@H]3[C@@H](O)[C@H](N)C[C@H](N)[C@H]3O[C@H]3O[C@H](CN)[C@@H](O)[C@H](O)[C@H]3N)O[C@@H]2CO)[C@H](N)[C@@H](O)[C@@H]1O | (CCUG)10 RNA | SPR | – | – | 1.45 µM |
| O=C(O)CCC(=O)Nc1cccc2ccccc12 | USP33 ZnF-UBD domain | – | – | – | > 1000 µM |
| Nc1ncnc2c1ncn2[C@@H]1O[C@H](COP(=O)(O)OP(=O)(O)O)[C@@H](O)[C@H]1O | GUK1 part: GMP-bound | binding, ITC | – | added: ATPγS and GMP 0.5 mM | 13.9 µM and 17.3 µM and 11.8 µM |
| NC(=O)c1cc(-n2c(CCC(=O)O)nc3ccccc32)cs1 | USP33 ZnF-UBD domain | – | – | – | > 1000 µM |
| NS(=O)(=O)c1ccccc1 | Carbonic anhydrase 4 (CA4, Homo sapiens, UniProt P22748) | binding | – | – | 5.56 µM and 5.6 µM |
| OC[C@H]1O[C@H](O[C@H]2[C@H](O)[C@@H](O)[C@@H](O[C@H]3[C@H](O)[C@@H](O)C(O)O[C@@H]3CO)O[C@@H]2CO)[C@H](O)[C@@H](O)[C@@H]1O (some centres unmarked) | Uncharacterized protein (Staphylococcus aureus, UniProt Q2G1E9) | isothermal titration calorimetry | – | 25 °C, single-site fit | 3.19 ± 0.42 µM |
| C[C@]12C=CC(=O)C=C1CC[C@@H]1[C@@H]2[C@@H](O)C[C@@]2(C)[C@H]1CC[C@]2(O)C(=O)CO | Corticosteroid-binding globulin (SERPINA6, Homo sapiens, UniProt P08185) | binding, ultrafiltration, LC-MS/MS | nondiabetic male subjects, plasma | 37 °C, 10% CO2, albumin and cortisol competition modelled | 0.0362 µM |

Repeated from above:
| Structure (SMILES) | target | test | system | setting | Kd |
| --- | --- | --- | --- | --- | --- |
| O=C(O)CCC(=O)c1ccc2c(c1)CCC(=O)N2 | USP33 ZnF-UBD domain | – | – | – | > 1000 µM |
| NC(=O)c1cc(-n2c(CCC(=O)O)nc3ccccc32)cs1 | USP33 ZnF-UBD domain | – | – | – | > 1000 µM |
| OC[C@H]1O[C@H](O[C@H]2[C@H](O)[C@@H](O)[C@@H](O[C@H]3[C@H](O)[C@@H](O)[C@@H](O[C@H]4[C@H](O)[C@@H](O)[C@@H](O[C@H]5[C@H](O)[C@@H](O)C(O)O[C@@H]5CO)O[C@@H]4CO)O[C@@H]3CO)O[C@@H]2CO)[C@H](O)[C@@H](O)[C@@H]1O (some centres unmarked) | Uncharacterized protein (Staphylococcus aureus, UniProt Q2G1E9) | isothermal titration calorimetry | – | 25 °C, single-site fit | 1.21 ± 0.09 µM |
